Results collected from several papers.
Every numbered part comes from another study and shows a few of its results, in no order.

Sample 1 — method: RNA Bind-n-Seq; molecule type: RNA; matrix: in vitro; concentration: 365 nM; relative to: no-protein control; direction: higher = stronger binding; quantity: RBNS enrichment (R)
Target: RNA binding protein fox-1 homolog 2, RRM domain, GST-SBP tag (RBFOX2, Homo sapiens, UniProt O43251-10, residues 100-194)
Notes: natural RNA segment, single round, ends assumed
Constant ends, left off below: GGGAGUUCUACAGUCCGACGAUC … UGGAAUUCUCGGGUGCCAA
Target sequence (chain): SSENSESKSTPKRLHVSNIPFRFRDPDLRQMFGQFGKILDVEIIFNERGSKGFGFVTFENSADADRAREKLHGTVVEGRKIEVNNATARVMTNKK
CUUUGCUUGUUGAAUAAUGCACUUUAAAACAAGGAACCGUAUCAGGCCAGCAUGGUGGCUCAUGCCUGUAAUCCCAGCAUUUUGGGAGGCUCAGGCAGACAAAUCGCUCU: 28.6
GUAAAUGGCUCUAGAGUUAGAGUGACUGUUUGCUCUUCUGCUUUCUGGAAUGCAGAUGACAGUAUGGAAAGAAAGAAUAAUGAUUCUAUCUAAUAGGAAAGGAUUUCUUC: 0.565
UCUUGCCAAAUAAGGGCCUGCUCCUCGUGGGAGACCACAGGUGUACAGUCGGUGGCCUUGUACCUGGGGGAGGUGGCUUAGGGCUUCUACCUCUGGGGGUAGAGGGAAGA: 0.275
UCAAAGAGAGGUAUAGGGGCUUUUUACUGCCUUCGAAAUCACUUUUAAUAAAAGUUGUAUGAUAAAUCAUUAAAAAUGCGAGUGUAAAUAUUUUUUUUUACCUCUAUCAG: 0.539
AAGCAUCUGAAGACUGGGUUUUUUUGUUGUUGUUGUUCCCCUUACAGACAAAAUGAAGACUAUCAUGUGCAAUCUUUUACAGUGGGGUUGAUGAUACAUUUGGAAGGAUU: 0.521
CGGUGGCUCCACCACUUCCGCAGGCCUGGAAACUUCCUUCUCCGGAGGACCUUUUACUAAAAGGUAGAAGACUUCAUGGCUUACUUGUUCCAUAACUCCAAGUGAGUCUG: 0.154
CAAUCCCCAGCACUUACUUCUCACUGCAAAGGAGCAAAACAACAAAAACAGCAAGACCAGAAGUGCCCAGCCCCUUGCUGACAGAUUGCUUCGUGUGUGUCCCCACACAA: 0.35

Sample 2 — method: protein binding microarray; molecule type: double-stranded DNA, one strand shown; matrix: in vitro; concentration: not given; relative to: not given; direction: higher = stronger binding; quantity: E-score
Target: Histone acetyltransferase KAT6A, both winged helices, GST fusion (KAT6A, Homo sapiens, UniProt Q92794, residues 1-181)
Notes: 8-mer, flanks averaged, mean of 2 arrays, mostly near background
Construct (chain): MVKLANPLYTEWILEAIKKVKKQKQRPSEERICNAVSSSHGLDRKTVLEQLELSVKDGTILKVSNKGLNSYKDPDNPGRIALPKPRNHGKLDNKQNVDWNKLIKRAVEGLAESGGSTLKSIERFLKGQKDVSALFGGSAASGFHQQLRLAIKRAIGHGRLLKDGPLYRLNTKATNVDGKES
CGATCCCC: -0.0734
AACAAATG: -0.00321
ACTGAGAT: -0.226
ATAAGCTA: -0.0974
CCGGGTAC: 0.189
GAACACTA: -0.0553
ATATTGTG: -0.0684
ATCTACCA: -0.154

Sample 3 — method: protein-binding microarray; molecule type: double-stranded DNA, one strand shown; matrix: in vitro; concentration: not given; direction: higher = stronger binding; quantity: E-score
Target: Protein max, full length (MAX, Homo sapiens, UniProt P61244-2, residues 1-151)
Notes: k-mer, scored over probes, only values ≥0.25
CGTGGGAC: 0.415
CATGCACA: 0.437
AACACGCT: 0.413
TAACACGA: 0.29
GTGACGCA: 0.275
CATGCACC: 0.377
ATCTCATG: 0.322
CCACGCCG: 0.396
ACCCACGA: 0.353

Sample 4 — method: universal PBM; molecule type: double-stranded DNA, one strand shown; matrix: in vitro; concentration: 600 nM; direction: higher = stronger binding; quantity: E-score
Target: Sal-like protein 4, full length isoform A (SALL4, Homo sapiens, UniProt Q9UJQ4, residues 1-1053)
UniProt Q9UJQ4, sequence (whole entry, looked up): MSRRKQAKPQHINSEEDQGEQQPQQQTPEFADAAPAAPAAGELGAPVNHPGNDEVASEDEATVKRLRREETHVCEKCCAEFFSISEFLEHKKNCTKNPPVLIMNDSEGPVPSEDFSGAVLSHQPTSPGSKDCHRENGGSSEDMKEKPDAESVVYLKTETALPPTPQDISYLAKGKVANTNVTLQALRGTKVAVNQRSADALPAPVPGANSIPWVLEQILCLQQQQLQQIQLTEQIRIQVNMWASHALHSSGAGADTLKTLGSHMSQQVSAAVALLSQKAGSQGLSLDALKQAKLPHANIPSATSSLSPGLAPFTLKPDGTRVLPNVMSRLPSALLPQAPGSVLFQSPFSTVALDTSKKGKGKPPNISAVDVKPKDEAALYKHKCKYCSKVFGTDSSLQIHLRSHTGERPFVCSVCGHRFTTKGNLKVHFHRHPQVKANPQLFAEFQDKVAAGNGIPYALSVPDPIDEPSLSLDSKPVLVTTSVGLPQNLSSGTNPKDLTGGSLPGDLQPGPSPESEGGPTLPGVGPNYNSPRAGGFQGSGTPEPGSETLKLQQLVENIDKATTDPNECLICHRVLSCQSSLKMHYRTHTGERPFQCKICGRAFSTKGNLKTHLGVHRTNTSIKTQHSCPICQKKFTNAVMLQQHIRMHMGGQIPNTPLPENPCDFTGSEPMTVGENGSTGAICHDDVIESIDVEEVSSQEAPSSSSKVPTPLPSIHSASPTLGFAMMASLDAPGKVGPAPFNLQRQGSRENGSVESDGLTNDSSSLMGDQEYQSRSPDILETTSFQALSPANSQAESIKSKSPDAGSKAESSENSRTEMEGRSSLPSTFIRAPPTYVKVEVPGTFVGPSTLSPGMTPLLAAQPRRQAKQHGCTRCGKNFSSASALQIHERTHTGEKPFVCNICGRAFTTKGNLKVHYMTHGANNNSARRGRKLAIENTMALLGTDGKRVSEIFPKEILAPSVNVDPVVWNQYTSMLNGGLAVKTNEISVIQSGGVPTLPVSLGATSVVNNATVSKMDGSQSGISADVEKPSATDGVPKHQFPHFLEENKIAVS
Notes: 8-mer, flanks averaged, mean of replicates
GCCTCCCC: -0.185
CGACTCCG: -0.358
CTTACACA: 0.0213
AACGGACG: -0.194
TACCTAGA: 0.118
GTAGTGAA: 0.0172
GACTGAAA: 0.0887
ATTAAGCC: 0.164
GAGCACAC: -0.176
CTAGCGAG: -0.315
AGGTTTCA: 0.0129
CATCAATA: 0.329
AAGTTTAA: 0.144
CTTGATAA: 0.262

Sample 5 — method: RNA Bind-n-Seq; molecule type: RNA; matrix: in vitro; concentration: not given; relative to: input RNA pool; direction: higher = stronger binding; quantity: bound/input enrichment
Target: RING finger protein unkempt homolog, zinc fingers 1-6, GST-SBP tag (UNK, Homo sapiens, UniProt Q9C0B0, residues 30-357)
UniProt Q9C0B0, sequence (30-357, looked up): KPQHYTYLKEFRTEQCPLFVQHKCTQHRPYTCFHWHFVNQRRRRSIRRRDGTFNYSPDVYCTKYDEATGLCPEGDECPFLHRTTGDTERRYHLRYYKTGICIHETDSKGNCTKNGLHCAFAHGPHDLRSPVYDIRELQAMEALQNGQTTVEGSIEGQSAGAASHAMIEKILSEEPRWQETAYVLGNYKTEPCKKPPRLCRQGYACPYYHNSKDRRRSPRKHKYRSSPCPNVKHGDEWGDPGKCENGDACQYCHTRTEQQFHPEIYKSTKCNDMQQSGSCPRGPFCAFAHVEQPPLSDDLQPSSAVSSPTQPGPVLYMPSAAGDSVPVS
Notes: RNA with constant flanks, human and mouse sites, ends assumed
Constant ends, left off below: GGGAGUUCUACAGUCCGACGAUC … CAACAGAGGAUUGAGCAUCA
GCAUCCUGAGCUGCACCCUGUACUGCAGCCUGGGGCCUGGUGGGUAUUUGGAGUCGCAUGUGGCUCUGUAUGGUUCCCAGCACAGCCGAAUUUGCACGUGGAGUGUGGUUAGGGGCAAAG: 0.119 ratio
UGCUGUACUCUUGCUGAUGGCUGCUAGAUUUUAAUUUAUUUGUUUCCCUACUUGAUAAUAUUAGUGAUUCUGAUUUCAGUUUUUCAUUUGUUUUGCUUUUGUUUUUUUCCUCAUGUAACA: 17.5 ratio
UGUGAAAAAUCAGAUGAAUUGAUAAAAGAGUUCCCUGCAACCAAUUGAAAAGUGUUCUGUGCGUCUGUUUUGUGUCUGGUGCAGAAUAUGACAAUCUACCAACUGUCCCUUUGUUUGAAG: 0.143 ratio
GAAGAGGUUCUGCUGGAACAAGCGGGUGCUGAUGCAACUGAAAGCUUUGAAGAUGUCGGCCACUCCCCUGAUGCCAGGGAGAUGCUAAAGCAGUACUACAUUGGAGAUGUCCAUCCGAGU: 0.12 ratio
GUCUGUUUACUAGAUGAAAAGCUACAAGCAAUUGCAGAGAAUUUGGGUUCAAUUCUUUUUUUUUUUUUUUACACGUAUUUUCCUCAAAUUACAUUUCCAAUGCUAUCUCAAAAGUCCCCC: 1.65 ratio
GACGCUAGCGAUGGGACCGUGCGACUUCGUGGACUGCCAUUUGGUUGCAGCAAAGAGGAAAUAGUUCAGUUCUUUCAAGGUAUAUUGAGAUCUUCAGGAGUAGCAGGAGUGAAAUCAAAG: 0.319 ratio
CUGUCUGAUAUCAUGGUCUCCCUGGCAAAUGCGUCAACUUUGCAGAAGGAUUGCAGUUGGAUAGAAAUGAUAAGGAAAUUUGUAACAGAGACCCUUGAAGAUGGCUCUAGGCUAAAUAGU: 1.58 ratio
GACACUCUCAUCAAGACAUUUGUGCGCUCACAGACUGCCCAGGUACAUGAUGGGAAAGGUAUUAGGUUUACUGCUAACGAGGACAUUCGGCCAGAAAAGGGGGCUGGUGUGGAUGACCCC: 0.398 ratio
GACAGCGACCUGCAGCUGGACCGCAUCUCUGUGUACUACAAUGAAGCCACAGGUGGCAAAUAUGUUCCUCGUGCCAUCCUGGUGGAUCUAGAACCUGGGACCAUGGACUCUGUUCGCUCA: 0.141 ratio

Sample 6 — method: RNA Bind-n-Seq; molecule type: RNA; matrix: in vitro; concentration: 200 nM; notes: whole 134-nt RNA, ends assumed; with: 150 mM LiCl; relative to: input library; direction: higher = stronger binding; quantity: log2 enrichment; library: 7-deaza-guanosine replaces G
Target: Ras GTPase-activating protein-binding protein 1, full length (G3BP1, Homo sapiens, UniProt Q13283)
UniProt Q13283, sequence (whole entry, looked up): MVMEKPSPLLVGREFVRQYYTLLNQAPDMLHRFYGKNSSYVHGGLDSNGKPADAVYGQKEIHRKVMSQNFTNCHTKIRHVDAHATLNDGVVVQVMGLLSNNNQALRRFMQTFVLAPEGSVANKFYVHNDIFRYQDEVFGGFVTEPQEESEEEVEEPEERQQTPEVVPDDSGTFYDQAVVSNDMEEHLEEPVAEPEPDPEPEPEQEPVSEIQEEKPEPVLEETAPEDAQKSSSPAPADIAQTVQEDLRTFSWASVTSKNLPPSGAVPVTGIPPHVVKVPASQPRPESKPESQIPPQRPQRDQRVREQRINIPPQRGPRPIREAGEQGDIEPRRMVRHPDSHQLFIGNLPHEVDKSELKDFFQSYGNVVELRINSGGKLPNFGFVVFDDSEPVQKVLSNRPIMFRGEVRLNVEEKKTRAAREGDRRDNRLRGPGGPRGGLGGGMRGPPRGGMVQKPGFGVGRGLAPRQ
Constant ends, left off below: GGGAGUUCUACAGUCCGACGAUC … UGGAAUUCUCGGGUGUCAAGG
AGUCCUGUGCUACACAUCGUAUGUACCGAAUCGGGGCCCCCGGCCCCCGGCCCCCGGGAAAGUAUUAUGUUACGCCGUUCGGAUCUGCAC: -1.57
CACAGACAACACGCACCCACACAGACACAGAGGGAAGGGGUUGGGAUGGGGACAGGGUGCACAGCAGGGCGGGGUAGGACCCCAGCCCAU: -0.477
CAGAACGAUCGAUACAGAAACCACGCUGCCGCCACCACACCAUCACCAUCGACAGAACAGUCCUUAAUCCAGAAACCUGAAAUGAAGGAA: 0.0905
UGGCCCUGGUGGCAUGCGGGGAGGAAGAGGUGGCCUCAUGCAUCGUGGUGGUCCCGGUGGAAUGUUCAGAGGUGGCCGUGGUGGAGACAG: 0.132
CUGUGCUACACAUCGUAUGUACCGAAUCGGGCCCCCCCGGCCCCCCCGGGGCCCCCCCGGGAAAGUAUUAUGUUACGCCGUUCGGAUCUG: 0.425
AGUCCUGUGCUACACAUCGUAUGUACCGAAUCGGGUUUUUGGGUUUUUGGGUUUUUGGAAAGUAUUAUGUUACGCCGUUCGGAUCUGCAC: -0.0222

Sample 7 — method: aptamer microarray, sandwich; molecule type: DNA with 2'F-ANA; matrix: in vitro; concentration: 200 nM; with: Cy3 exosite-II aptamer, 400 nM; direction: higher = stronger binding; quantity: mean fluorescence intensity; strand: GGTTGGTGTGGTTGG
Target: Prothrombin, mature alpha-thrombin (F2, Homo sapiens, UniProt P00734)
Notes: whole 15-mer aptamer, many near background
2'F-ANA at 1 3 5 7 8 9 11 12 14: 49.1 a.u.
2'F-ANA at 1 2 3 5 7 8 9 15: 70 a.u.
2'F-ANA at 4 6 7 9 10 11 13 14 15: 90.4 a.u.
2'F-ANA at 1 4 9 10 11 12 14: 44 a.u.
2'F-ANA at 1 5 6 7 8 11 12 14: 51.7 a.u.
2'F-ANA at 1 2 3 4 5 7 8 11 13: 58.7 a.u.
2'F-ANA at 2 3 7 11 14: 465 a.u.
2'F-ANA at 3 4 5 6 10 11 12 14: 48.7 a.u.
2'F-ANA at 1 5 6 8 9 11 12 14: 47.5 a.u.
2'F-ANA at 2 5 6 9 11 12 14: 49.2 a.u.
2'F-ANA at 2 3 4 8 9 10 12 13 14 15: 167 a.u.
2'F-ANA at 1 4 6 7 8 10 11 13 14: 61.4 a.u.
2'F-ANA at 1 4 5 8 10 11: 51.6 a.u.
2'F-ANA at 2 3 5 7 8 9 10 12: 83.4 a.u.
2'F-ANA at 2 3 4 9 11 12 13 15: 550 a.u.
2'F-ANA at 3 4 9 10 11 12 14: 197 a.u.
2'F-ANA at 5 6 8 9 12 15: 160 a.u.

Repeated from above (sample 1):
CUUUGCUUGUUGAAUAAUGCACUUUAAAACAAGGAACCGUAUCAGGCCAGCAUGGUGGCUCAUGCCUGUAAUCCCAGCAUUUUGGGAGGCUCAGGCAGACAAAUCGCUCU: 28.6
GUAAAUGGCUCUAGAGUUAGAGUGACUGUUUGCUCUUCUGCUUUCUGGAAUGCAGAUGACAGUAUGGAAAGAAAGAAUAAUGAUUCUAUCUAAUAGGAAAGGAUUUCUUC: 0.565
UCUUGCCAAAUAAGGGCCUGCUCCUCGUGGGAGACCACAGGUGUACAGUCGGUGGCCUUGUACCUGGGGGAGGUGGCUUAGGGCUUCUACCUCUGGGGGUAGAGGGAAGA: 0.275
UCAAAGAGAGGUAUAGGGGCUUUUUACUGCCUUCGAAAUCACUUUUAAUAAAAGUUGUAUGAUAAAUCAUUAAAAAUGCGAGUGUAAAUAUUUUUUUUUACCUCUAUCAG: 0.539
AAGCAUCUGAAGACUGGGUUUUUUUGUUGUUGUUGUUCCCCUUACAGACAAAAUGAAGACUAUCAUGUGCAAUCUUUUACAGUGGGGUUGAUGAUACAUUUGGAAGGAUU: 0.521
CGGUGGCUCCACCACUUCCGCAGGCCUGGAAACUUCCUUCUCCGGAGGACCUUUUACUAAAAGGUAGAAGACUUCAUGGCUUACUUGUUCCAUAACUCCAAGUGAGUCUG: 0.154
